Measured values of several laboratories.
Numbers after ± are the reported error.
Dihydrofolate reductase: Dihydrofolate reductase (Enterococcus faecalis, UniProt Q834R2)
cathepsin H: cathepsin H (Capra hircus, UniProt A0A452G5L2)
Chain of UniProt P21217 (whole entry, looked up): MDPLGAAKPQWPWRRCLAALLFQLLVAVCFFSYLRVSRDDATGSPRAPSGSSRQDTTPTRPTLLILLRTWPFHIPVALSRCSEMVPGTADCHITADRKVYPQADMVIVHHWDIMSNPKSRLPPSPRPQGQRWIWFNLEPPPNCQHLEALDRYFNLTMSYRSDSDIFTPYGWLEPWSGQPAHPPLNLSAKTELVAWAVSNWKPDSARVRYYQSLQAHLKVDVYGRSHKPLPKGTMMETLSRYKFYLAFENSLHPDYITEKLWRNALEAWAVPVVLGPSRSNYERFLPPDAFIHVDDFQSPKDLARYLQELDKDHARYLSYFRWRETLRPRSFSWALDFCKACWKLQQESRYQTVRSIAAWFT
Chain of UniProt Q9ZMY2 (whole entry, looked up): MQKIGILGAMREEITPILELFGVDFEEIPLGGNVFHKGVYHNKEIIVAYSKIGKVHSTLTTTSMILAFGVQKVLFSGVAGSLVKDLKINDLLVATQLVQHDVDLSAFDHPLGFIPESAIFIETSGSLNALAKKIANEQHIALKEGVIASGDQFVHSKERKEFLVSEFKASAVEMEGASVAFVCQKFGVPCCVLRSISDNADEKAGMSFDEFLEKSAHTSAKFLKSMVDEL
Chain of UniProt Q9HCG7 (whole entry, looked up): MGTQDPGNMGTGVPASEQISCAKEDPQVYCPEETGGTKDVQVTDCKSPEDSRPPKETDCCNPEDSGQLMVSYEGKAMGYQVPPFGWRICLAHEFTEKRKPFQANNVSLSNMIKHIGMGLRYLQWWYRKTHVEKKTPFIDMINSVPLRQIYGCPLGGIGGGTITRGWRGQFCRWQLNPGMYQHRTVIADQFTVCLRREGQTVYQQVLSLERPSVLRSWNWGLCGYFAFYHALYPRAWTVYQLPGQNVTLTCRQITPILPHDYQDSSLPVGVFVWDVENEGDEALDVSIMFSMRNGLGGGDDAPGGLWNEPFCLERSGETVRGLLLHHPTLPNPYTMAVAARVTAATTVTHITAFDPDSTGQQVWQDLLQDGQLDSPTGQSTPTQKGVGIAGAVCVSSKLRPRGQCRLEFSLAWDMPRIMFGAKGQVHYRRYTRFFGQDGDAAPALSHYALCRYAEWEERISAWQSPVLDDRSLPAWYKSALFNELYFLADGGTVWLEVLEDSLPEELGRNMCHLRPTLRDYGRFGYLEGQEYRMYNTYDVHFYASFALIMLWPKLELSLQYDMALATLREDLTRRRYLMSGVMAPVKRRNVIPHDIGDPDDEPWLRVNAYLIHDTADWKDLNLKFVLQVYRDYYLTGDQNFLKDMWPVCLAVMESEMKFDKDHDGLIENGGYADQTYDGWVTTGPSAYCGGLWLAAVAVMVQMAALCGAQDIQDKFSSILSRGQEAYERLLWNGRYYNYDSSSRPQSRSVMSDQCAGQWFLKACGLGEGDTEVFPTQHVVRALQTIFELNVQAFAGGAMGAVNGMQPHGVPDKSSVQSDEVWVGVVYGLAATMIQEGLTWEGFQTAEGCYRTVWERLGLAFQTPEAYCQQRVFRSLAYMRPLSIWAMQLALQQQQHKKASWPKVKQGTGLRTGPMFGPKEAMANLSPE
Chain of UniProt P61823 (whole entry, looked up): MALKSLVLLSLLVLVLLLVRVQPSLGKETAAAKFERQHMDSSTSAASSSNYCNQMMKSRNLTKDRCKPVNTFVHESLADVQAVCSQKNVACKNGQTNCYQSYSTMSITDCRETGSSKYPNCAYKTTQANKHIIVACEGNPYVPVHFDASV
Chain of UniProt P52699 (whole entry, looked up): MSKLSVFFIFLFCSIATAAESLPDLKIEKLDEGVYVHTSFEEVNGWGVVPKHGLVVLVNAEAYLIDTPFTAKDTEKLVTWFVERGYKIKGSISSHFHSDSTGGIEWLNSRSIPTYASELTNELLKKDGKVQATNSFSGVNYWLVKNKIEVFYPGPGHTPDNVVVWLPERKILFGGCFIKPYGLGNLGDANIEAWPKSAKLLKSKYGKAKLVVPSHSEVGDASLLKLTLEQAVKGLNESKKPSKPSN
Chain of UniProt P50391 (whole entry, looked up): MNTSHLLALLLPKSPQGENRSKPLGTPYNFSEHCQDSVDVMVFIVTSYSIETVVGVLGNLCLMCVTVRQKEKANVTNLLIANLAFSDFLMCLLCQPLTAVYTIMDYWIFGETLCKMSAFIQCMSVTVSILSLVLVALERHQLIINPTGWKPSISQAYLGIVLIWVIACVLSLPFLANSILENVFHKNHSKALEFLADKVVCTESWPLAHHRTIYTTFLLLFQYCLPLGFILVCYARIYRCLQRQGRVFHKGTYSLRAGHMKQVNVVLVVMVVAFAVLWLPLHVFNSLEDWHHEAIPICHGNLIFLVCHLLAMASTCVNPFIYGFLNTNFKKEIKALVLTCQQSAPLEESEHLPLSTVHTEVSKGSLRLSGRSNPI
Chain of UniProt P21709 (whole entry, looked up): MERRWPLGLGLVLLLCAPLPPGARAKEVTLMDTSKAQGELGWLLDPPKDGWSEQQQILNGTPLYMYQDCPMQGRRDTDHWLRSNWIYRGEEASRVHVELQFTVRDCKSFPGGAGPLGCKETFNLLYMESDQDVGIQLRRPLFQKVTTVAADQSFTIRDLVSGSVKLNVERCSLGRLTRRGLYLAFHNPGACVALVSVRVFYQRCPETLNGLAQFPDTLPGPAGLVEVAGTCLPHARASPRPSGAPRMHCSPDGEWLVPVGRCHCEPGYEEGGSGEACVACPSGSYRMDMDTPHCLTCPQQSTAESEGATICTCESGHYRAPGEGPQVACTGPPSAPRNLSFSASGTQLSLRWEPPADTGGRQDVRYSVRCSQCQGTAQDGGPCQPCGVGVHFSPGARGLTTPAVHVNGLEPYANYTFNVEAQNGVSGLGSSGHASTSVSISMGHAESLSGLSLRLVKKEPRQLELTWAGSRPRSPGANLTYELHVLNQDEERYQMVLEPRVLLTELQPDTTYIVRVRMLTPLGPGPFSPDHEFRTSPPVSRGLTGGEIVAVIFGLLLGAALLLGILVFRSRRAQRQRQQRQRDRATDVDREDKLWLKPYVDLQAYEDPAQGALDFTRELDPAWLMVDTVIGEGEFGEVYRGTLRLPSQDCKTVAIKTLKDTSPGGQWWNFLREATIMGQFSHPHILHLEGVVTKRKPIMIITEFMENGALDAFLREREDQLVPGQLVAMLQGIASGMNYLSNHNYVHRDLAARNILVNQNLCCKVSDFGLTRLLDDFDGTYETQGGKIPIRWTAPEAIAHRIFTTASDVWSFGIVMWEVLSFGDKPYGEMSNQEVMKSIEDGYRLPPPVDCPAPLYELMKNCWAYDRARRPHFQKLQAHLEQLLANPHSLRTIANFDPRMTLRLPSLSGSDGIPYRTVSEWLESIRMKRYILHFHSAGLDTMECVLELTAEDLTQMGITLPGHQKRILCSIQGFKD
Chain of UniProt P54764 (whole entry, looked up): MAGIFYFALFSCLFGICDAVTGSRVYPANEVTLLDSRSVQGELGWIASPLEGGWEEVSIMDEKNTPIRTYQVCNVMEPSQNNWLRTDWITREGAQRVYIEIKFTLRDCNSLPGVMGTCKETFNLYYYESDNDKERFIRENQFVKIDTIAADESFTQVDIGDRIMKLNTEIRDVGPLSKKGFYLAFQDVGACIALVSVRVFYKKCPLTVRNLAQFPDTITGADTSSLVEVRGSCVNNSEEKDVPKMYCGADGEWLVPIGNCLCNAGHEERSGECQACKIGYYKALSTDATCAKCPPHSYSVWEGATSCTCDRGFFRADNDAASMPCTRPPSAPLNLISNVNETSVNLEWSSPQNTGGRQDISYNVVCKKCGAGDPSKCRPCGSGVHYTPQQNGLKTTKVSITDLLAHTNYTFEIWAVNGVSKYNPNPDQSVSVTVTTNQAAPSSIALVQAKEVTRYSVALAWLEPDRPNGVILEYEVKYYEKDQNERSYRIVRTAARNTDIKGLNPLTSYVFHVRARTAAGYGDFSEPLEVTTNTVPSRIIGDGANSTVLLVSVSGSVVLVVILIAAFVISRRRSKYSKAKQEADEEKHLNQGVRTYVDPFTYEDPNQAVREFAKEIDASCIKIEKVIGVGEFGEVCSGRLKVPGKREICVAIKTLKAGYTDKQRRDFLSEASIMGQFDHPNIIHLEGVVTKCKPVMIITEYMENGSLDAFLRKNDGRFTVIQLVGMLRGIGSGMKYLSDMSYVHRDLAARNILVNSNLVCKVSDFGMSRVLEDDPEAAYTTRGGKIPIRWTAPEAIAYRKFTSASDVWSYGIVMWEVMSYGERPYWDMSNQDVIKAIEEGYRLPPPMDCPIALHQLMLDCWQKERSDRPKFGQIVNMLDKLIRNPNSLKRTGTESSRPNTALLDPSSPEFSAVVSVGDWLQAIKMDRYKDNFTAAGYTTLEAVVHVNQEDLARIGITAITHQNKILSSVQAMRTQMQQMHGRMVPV
Chain of UniProt P31652 (whole entry, looked up): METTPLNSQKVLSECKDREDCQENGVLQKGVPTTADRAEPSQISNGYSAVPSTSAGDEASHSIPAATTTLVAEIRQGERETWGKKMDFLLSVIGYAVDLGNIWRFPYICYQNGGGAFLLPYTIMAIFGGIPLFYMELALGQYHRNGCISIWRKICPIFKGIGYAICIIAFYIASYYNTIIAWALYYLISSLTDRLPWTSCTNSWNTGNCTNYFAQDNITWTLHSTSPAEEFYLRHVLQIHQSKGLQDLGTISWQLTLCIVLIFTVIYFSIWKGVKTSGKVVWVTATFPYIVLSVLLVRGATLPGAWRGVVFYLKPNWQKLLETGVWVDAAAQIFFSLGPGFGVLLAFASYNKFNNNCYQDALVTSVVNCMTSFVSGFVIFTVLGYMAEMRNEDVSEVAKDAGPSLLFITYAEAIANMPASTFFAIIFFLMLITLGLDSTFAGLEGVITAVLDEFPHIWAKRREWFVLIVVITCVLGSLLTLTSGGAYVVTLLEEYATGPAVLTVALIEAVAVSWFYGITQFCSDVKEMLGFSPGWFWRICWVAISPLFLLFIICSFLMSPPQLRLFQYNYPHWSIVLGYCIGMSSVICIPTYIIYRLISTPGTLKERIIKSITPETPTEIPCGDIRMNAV

With CCN(CC)c1ccc2c(-c3ccc(S(=O)(=O)NCCCCCC(=O)NCc4ccc(CC(O)CN5CCN(CCSC(c6ccc(F)cc6)c6ccc(F)cc6)CC5)cc4)cc3S(=O)(=O)[O-])c3ccc(=[N+](CC)CC)cc-3oc2c1 (stereo not shown) the Ki was 5.91 µM (Sodium-dependent serotonin transporter (Slc6a4, Rattus norvegicus, UniProt P31652); ligand displacement, radioligand; cell membranes).
With COc1cc(Cc2cnc(N)nc2N)cc(/C=C/C(=O)N2N=Cc3ccccc3C2Cc2ccccc2)c1OC (stereo not shown) the Ki was 0.005 µM (Dihydrofolate reductase; enzyme activity, inhibitor; added: dihydrofolate (Km 10.9 µM)).
For CNC(=O)C1CCN(c2cc(C)c(F)cc2NC(=O)c2ccc(-c3cc(O)ccc3C)c(C)c2)CC1, the Ki was 0.0021 µM (Ephrin type-A receptor 1 (EPHA1, Homo sapiens, UniProt P21709); cell-free assay, TR-FRET).
CCCSC[C@H]1CN(Cc2c[nH]c3c(N)ncnc23)C[C@@H]1O gave a Ki of 7e-06 ± 2e-06 µM (Aminodeoxyfutalosine nucleosidase (Helicobacter pylori, UniProt Q9ZMY2); enzyme activity, inhibitor; slow-onset equilibrium).
With COc1ccc(/C=C/C(=N/NC(N)=O)c2ccccc2)cc1 the Ki was 54 ± 0.3 µM (cathepsin H; competitive inhibitor, Lineweaver-Burk plot; goat liver enzyme; pH 7.0, added: Leu-βNA substrate).
The Ki of COC(=O)c1ccc(CS(=O)(=O)NCc2cn(CB(O)O)nn2)cc1 is reported as 0.39 ± 0.3 µM (Beta-lactamase ADC-7 (Acinetobacter baumannii, UniProt Q6DRA1); enzyme activity, inhibitor; added: nitrocefin).
CC(C)C[C@H](NC(=O)[C@H](CCCNC(=N)N)NC(=O)[C@H](Cc1ccc(O)cc1)NC(=O)CCCCCCC(=O)N[C@@H](Cc1ccc(O)cc1)C(=O)N[C@@H](CCCNC(=N)N)C(=O)N[C@@H](CC(C)C)C(=O)NN(CCCN)C(=O)N[C@@H](Cc1ccc(O)cc1)C(N)=O)C(=O)NN(CCCN)C(=O)N[C@@H](Cc1ccc(O)cc1)C(N)=O has a Ki of 0.13 ± 0.039 µM (Neuropeptide Y receptor type 4 (NPY4R, Homo sapiens, UniProt P50391)).
With Nc1nc2c(ncn2[C@@H]2O[C@H](COP(=O)(O)OP(=O)(O)O[C@H]3O[C@@H](CNC(=O)CCCc4ccccc4)[C@@H](O)[C@@H](O)[C@@H]3F)[C@@H](O)[C@H]2O)c(=O)[nH]1 the Ki was 2.1 µM (FUT3 (Homo sapiens, UniProt P21217); enzyme activity, inhibitor).
CC(C)C[C@@H]1NC(=O)[C@H](C)NC(=O)[C@H](CC2CCN(C(=N)N)CC2)NC(=O)[C@H](CO)NC(=O)[C@H](CCCNC(=N)N)NC(=O)[C@H](CCCCN)NC(=O)[C@@H]2CCCN2C(=O)[C@@H](N)CSSC[C@@H](C(=O)O)NC(=O)[C@H](Cc2ccccc2)NC1=O has a Ki of over 1000 µM (Urokinase-type plasminogen activator (PLAU, Homo sapiens, UniProt P00749); pH 7.4, 37 °C, added: S-2444 substrate).
O=C(/C=C/c1ccc(Cl)cc1)c1ccccc1 gave a Ki of 83 ± 0.3 µM (cathepsin H; competitive inhibitor, Lineweaver-Burk plot; goat liver enzyme; pH 7.0, added: Leu-βNA substrate).
The Ki of COc1cc(Cc2cnc(N)nc2N)cc(/C=C/C(=O)N2N=Cc3ccccc3C2CCC(F)(F)F)c1OC (stereo not shown) is reported as 0.0038 µM (Dihydrofolate reductase; enzyme activity, inhibitor; added: dihydrofolate (Km 10.9 µM)).
The Ki of CS(=O)(=O)NS(=O)(=O)CCCCCCS(=O)(=O)NS(=O)(=O)CCCCCCS(=O)(=O)NS(=O)(=O)CCCCCCS(=O)(=O)NS(C)(=O)=O is reported as about 10000 µM (Ribonuclease pancreatic (RNASE1, Bos taurus, UniProt P61823); enzyme activity, inhibitor, fluorescence).
CNC(=O)C1CCN(c2ccccc2NC(=O)c2ccc(-c3cc(O)ccc3C)c(C)c2)CC1 has a Ki of 0.00025 µM (Ephrin type-A receptor 4 (EPHA4, Homo sapiens, UniProt P54764); enzyme activity, inhibitor).
CN(C)c1ccc(-n2cc(COC(=O)[C@]3(C)C=C(C(=O)OC(C)(C)C)C(=O)CC3)nn2)cc1 gave a Ki of 3.5 µM (Mitogen-activated protein kinase 14 (MAPK14, Homo sapiens, UniProt Q16539); ligand displacement, FP).
CC(C)COCCCCCN1C[C@H](O)[C@@H](O)[C@H](O)[C@H]1CO has a Ki of 0.0075 µM (Beta-glucosidase (GBA2, Homo sapiens, UniProt Q9HCG7); enzyme activity, inhibitor; HEK293T overexpressing homogenate; added: 4MU-β-D-glucopyranoside).
CN(C)c1ccc2c3c(cccc13)C(=O)N(C(CS)C(=O)O)C2=O (stereo not shown) gave a Ki of 0.164 ± 0.008 µM (Metallo-beta-lactamase type 2 (Serratia marcescens, UniProt P52699); enzyme activity, inhibitor; Km 4.8 µM, added: chromacef 25 µM).

For quick reference, copied from above:
CC(C)C[C@@H]1NC(=O)[C@H](C)NC(=O)[C@H](CC2CCN(C(=N)N)CC2)NC(=O)[C@H](CO)NC(=O)[C@H](CCCNC(=N)N)NC(=O)[C@H](CCCCN)NC(=O)[C@@H]2CCCN2C(=O)[C@@H](N)CSSC[C@@H](C(=O)O)NC(=O)[C@H](Cc2ccccc2)NC1=O has a Ki of over 1000 µM (Urokinase-type plasminogen activator (PLAU, Homo sapiens, UniProt P00749); pH 7.4, 37 °C, added: S-2444 substrate).
With Nc1nc2c(ncn2[C@@H]2O[C@H](COP(=O)(O)OP(=O)(O)O[C@H]3O[C@@H](CNC(=O)CCCc4ccccc4)[C@@H](O)[C@@H](O)[C@@H]3F)[C@@H](O)[C@H]2O)c(=O)[nH]1 the Ki was 2.1 µM (FUT3 (Homo sapiens, UniProt P21217); enzyme activity, inhibitor).
CC(C)COCCCCCN1C[C@H](O)[C@@H](O)[C@H](O)[C@H]1CO has a Ki of 0.0075 µM (Beta-glucosidase (GBA2, Homo sapiens, UniProt Q9HCG7); enzyme activity, inhibitor; HEK293T overexpressing homogenate; added: 4MU-β-D-glucopyranoside).
